Published values gathered from unrelated publications.
Every numbered part comes from another study and shows a few of its results, in no order. Several values in a cell are separate wells, animals, samples, runs or records.
Sequence of UniProt P21728 (whole entry, looked up): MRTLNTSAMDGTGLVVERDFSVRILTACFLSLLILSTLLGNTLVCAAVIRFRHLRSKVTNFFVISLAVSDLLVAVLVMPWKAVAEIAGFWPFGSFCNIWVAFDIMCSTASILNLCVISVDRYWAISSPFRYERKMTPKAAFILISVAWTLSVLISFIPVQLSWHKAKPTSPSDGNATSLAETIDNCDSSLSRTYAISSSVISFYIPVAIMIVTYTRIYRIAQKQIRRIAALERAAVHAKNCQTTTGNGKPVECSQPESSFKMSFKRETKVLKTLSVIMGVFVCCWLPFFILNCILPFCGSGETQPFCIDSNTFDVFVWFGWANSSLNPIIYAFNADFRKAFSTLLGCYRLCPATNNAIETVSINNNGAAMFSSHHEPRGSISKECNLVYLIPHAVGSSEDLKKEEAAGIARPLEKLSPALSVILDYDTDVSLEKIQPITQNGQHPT
Sequence of UniProt P18825 (whole entry, looked up): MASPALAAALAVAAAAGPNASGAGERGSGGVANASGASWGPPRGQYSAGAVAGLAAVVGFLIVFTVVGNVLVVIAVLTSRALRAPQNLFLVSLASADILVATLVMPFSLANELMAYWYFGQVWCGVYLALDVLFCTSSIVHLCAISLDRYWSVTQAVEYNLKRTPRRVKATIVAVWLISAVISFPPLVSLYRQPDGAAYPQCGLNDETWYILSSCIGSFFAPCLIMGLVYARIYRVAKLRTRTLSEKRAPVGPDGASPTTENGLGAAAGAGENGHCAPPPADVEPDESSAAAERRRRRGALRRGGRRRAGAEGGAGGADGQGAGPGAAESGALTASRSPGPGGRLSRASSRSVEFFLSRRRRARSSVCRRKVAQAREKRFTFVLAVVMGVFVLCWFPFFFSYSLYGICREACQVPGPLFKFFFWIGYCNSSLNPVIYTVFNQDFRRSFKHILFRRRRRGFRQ
Sequence of UniProt P35368 (whole entry, looked up): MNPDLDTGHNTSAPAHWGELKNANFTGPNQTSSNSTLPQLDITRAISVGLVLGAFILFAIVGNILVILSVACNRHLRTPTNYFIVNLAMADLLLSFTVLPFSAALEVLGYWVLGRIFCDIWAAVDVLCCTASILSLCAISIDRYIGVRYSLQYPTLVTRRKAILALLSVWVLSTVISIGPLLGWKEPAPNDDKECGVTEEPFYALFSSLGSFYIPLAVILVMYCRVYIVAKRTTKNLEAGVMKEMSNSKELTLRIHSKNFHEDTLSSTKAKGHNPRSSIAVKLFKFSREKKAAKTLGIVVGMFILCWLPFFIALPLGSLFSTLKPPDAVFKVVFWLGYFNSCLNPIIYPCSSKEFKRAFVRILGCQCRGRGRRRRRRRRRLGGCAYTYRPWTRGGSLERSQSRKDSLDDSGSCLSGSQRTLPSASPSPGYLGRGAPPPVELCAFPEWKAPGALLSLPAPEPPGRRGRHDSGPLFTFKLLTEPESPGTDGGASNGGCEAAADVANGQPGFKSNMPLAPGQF
Sequence of UniProt P25100 (whole entry, looked up): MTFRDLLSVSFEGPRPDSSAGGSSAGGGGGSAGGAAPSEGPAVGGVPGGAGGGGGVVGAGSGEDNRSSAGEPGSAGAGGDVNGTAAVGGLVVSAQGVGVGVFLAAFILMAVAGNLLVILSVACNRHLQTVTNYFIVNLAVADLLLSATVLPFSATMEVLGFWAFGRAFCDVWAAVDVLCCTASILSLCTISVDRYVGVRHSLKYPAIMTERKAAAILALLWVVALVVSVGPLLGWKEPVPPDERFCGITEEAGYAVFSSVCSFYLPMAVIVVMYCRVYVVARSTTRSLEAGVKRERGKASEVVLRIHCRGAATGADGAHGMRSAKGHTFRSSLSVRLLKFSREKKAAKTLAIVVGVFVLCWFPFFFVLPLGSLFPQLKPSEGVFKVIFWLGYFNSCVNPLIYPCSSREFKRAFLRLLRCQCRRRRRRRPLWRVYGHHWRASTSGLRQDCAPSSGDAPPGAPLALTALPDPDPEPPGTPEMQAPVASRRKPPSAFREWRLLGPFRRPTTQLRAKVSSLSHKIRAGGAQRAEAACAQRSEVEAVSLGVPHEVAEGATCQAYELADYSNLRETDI
Sequence of UniProt P18089 (whole entry, looked up): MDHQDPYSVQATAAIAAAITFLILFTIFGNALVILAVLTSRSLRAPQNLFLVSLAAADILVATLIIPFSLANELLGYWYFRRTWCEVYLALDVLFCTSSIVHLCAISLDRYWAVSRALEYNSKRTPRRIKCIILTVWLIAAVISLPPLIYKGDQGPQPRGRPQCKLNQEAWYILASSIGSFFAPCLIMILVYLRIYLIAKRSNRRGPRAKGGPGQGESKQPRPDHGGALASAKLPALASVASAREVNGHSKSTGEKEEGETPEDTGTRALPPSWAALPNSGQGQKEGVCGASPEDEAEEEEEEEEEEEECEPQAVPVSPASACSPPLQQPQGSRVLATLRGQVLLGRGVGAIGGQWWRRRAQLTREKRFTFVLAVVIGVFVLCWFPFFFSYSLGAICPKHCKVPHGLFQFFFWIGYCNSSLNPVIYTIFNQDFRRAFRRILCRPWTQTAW

Sample 1 — cell line: mouse MPNST tumor cells; technique: high-content nuclear imaging; item: cell number; concentration: 10 µM; time: 12 h; notes: mean of 2 replicates; relative to: plate mean; direction: higher = more cells
| Compound | nuclei count |
| --- | --- |
| CN(C)CC(c1ccc(O)cc1)C1(O)CCCCC1 (stereo not shown) | -0.0191 z-score |
| O=[N+]([O-])c1ccc2nc(COCc3nc4ccc([N+](=O)[O-])cc4[nH]3)[nH]c2c1 | 3.6 z-score |
| CCCCCN(CCCOC)C(=O)C(CCC(=O)O)NC(=O)c1ccc(Cl)c(Cl)c1 (stereo not shown) | 0.951 z-score |
| Cc1ccc(Cl)c(Nc2ccccc2C(=O)O)c1Cl | 2.67 z-score and 2.38 z-score |
| C=CCN(C)CCCCCCOc1ccc(C(=O)c2ccc(Br)cc2)c(F)c1 | -4.93 z-score |
| O=C(O)c1ccc2c(c1)C(=O)N(c1cccc(Oc3ccc([N+](=O)[O-])cc3)c1)C2=O | 1.23 z-score |
| COCC(=O)Nc1c(I)c(C(=O)NCC(O)CO)c(I)c(C(=O)N(C)CC(O)CO)c1I (stereo not shown) | -0.63 z-score |
| CCn1c(=O)n(C2CCCN(c3nccc(-c4cc5ccccc5o4)n3)C2)c2ccccc21 (stereo not shown) | 4.06 z-score |

Sample 2 — read-out: cell-free assay; concentration: 10 µM
Structure (SMILES): CN1C(=O)[C@@H](N2CCc3c(nn(Cc4ccccc4)c3Br)C2=O)COc2ccccc21
| target | inhibition [%] |
| --- | --- |
| Sigma intracellular receptor 2 (TMEM97, Homo sapiens, UniProt Q5BJF2) | 53.9 |
| Beta-2 adrenergic receptor (ADRB2, Homo sapiens, UniProt P07550) | 11.2 |
| D(1A) dopamine receptor (DRD1, Homo sapiens, UniProt P21728) | 16.1 |
| Muscarinic acetylcholine receptor M4 (CHRM4, Homo sapiens, UniProt P08173) | 11.7 |
| D(4) dopamine receptor (DRD4, Homo sapiens, UniProt P21917) | 8.9 |
| Muscarinic acetylcholine receptor M5 (CHRM5, Homo sapiens, UniProt P08912) | 9.18 |
| Histamine H3 receptor (HRH3, Homo sapiens, UniProt Q9Y5N1) | -12.3 |
| Alpha-1D adrenergic receptor (ADRA1D, Homo sapiens, UniProt P25100) | 5.52 |
| Beta-1 adrenergic receptor (ADRB1, Homo sapiens, UniProt P08588) | 12 |
| Sigma non-opioid intracellular receptor 1 (SIGMAR1, Homo sapiens, UniProt Q99720) | -14.5 |
| Alpha-2B adrenergic receptor (ADRA2B, Homo sapiens, UniProt P18089) | 59.6 |
| 5-hydroxytryptamine receptor 7 (HTR7, Homo sapiens, UniProt P34969) | 5.69 |
| Alpha-1B adrenergic receptor (ADRA1B, Homo sapiens, UniProt P35368) | -0.19 |
| Alpha-2C adrenergic receptor (ADRA2C, Homo sapiens, UniProt P18825) | 71.3 |
| Beta-3 adrenergic receptor (ADRB3, Homo sapiens, UniProt P13945) | 39.3 |
| Histamine H1 receptor (HRH1, Homo sapiens, UniProt P35367) | 9.99 |
| 5-hydroxytryptamine receptor 6 (HTR6, Homo sapiens, UniProt P50406) | 8.15 |
| Muscarinic acetylcholine receptor M2 (CHRM2, Homo sapiens, UniProt P08172) | -4.12 |
| Histamine H2 receptor (HRH2, Homo sapiens, UniProt P25021) | 0.52 |
| D(3) dopamine receptor (DRD3, Homo sapiens, UniProt P35462) | 3.31 |
| 5-hydroxytryptamine receptor 2B (HTR2B, Homo sapiens, UniProt P41595) | 38.3 |
| D(2) dopamine receptor (DRD2, Homo sapiens, UniProt P14416) | -5.95 |

Sample 3 — read-out: enzyme activity; action: inhibitor; concentration: 77 µM; relative to: untreated
Target: DNA polymerase theta, ATPase domain (POLQ, Homo sapiens, UniProt O75417)
Sequence of UniProt O75417 (whole entry, unmodified, looked up): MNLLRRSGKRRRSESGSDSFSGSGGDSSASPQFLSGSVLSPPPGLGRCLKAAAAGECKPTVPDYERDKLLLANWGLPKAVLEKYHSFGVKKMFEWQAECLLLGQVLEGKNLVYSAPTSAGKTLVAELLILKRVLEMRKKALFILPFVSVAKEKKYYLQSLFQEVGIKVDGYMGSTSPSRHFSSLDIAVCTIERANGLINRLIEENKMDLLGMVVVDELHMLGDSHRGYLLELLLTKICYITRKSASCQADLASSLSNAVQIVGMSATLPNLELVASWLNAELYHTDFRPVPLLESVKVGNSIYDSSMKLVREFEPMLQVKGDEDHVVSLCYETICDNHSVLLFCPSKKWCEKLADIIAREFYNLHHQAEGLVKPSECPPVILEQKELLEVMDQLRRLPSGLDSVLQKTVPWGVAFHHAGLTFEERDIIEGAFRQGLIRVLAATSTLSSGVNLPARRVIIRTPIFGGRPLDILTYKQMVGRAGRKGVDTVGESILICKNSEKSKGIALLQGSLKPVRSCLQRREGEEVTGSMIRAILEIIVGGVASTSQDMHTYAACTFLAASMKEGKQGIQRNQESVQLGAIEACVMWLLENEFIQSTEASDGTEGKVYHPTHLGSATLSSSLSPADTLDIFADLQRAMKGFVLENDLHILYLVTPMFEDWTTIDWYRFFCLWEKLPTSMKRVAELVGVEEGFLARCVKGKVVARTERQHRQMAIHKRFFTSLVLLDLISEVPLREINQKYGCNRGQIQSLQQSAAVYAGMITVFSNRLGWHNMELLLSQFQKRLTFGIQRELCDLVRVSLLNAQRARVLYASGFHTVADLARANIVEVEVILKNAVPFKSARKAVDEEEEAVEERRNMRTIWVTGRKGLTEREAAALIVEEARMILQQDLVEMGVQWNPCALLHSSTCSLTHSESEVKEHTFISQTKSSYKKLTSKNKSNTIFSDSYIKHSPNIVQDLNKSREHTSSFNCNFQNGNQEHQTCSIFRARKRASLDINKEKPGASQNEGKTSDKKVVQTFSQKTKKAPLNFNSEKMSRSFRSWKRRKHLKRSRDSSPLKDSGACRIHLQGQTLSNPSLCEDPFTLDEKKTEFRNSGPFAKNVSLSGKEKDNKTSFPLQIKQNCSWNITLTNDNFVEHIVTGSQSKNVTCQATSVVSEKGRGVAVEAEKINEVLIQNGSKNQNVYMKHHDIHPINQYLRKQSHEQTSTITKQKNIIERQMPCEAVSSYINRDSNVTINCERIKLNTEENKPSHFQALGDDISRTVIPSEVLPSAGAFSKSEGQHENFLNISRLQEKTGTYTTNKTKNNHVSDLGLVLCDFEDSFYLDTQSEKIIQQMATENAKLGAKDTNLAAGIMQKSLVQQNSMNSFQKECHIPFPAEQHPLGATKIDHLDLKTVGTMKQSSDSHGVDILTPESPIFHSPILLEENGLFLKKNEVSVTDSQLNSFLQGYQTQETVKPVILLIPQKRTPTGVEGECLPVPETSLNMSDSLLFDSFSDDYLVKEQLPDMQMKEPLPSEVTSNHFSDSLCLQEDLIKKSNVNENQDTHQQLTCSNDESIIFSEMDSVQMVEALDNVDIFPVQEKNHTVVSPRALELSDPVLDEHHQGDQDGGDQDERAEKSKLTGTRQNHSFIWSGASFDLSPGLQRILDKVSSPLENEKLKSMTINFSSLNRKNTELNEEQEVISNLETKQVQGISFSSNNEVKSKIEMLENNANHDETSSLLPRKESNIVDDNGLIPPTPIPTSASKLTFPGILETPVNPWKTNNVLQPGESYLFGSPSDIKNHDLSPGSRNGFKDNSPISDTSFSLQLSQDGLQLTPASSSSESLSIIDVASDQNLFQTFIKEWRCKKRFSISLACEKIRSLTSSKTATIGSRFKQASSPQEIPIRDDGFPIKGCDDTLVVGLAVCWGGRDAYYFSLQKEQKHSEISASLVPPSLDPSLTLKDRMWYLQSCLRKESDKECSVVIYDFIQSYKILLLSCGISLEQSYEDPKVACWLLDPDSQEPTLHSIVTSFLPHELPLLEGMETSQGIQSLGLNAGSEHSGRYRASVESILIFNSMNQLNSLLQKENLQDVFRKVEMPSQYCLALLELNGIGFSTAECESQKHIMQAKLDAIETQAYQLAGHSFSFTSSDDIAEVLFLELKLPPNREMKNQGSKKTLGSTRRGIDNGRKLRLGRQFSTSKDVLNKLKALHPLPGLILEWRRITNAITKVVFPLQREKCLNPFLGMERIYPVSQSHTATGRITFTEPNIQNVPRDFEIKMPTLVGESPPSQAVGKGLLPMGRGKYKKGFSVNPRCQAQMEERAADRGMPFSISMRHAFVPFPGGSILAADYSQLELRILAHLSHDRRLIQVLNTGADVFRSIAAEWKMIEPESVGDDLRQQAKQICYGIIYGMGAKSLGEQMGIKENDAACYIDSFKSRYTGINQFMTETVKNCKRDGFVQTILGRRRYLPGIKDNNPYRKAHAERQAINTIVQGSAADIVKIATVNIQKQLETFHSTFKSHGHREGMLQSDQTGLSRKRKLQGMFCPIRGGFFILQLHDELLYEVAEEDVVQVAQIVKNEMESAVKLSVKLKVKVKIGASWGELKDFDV
| Structure (SMILES) | remaining activity |
| --- | --- |
| COc1ccc(C(=O)c2ccccc2O)c(O)c1 | 109% |
| O=C1[C@H](CC[C@H](O)c2ccc(F)cc2)[C@@H](c2ccc(O)cc2)N1c1ccc(F)cc1 | 91.9% |
| CCOC(=O)Nc1ccc2c(c1)N(C(=O)CCN1CCOCC1)c1ccccc1S2 | 96.3% |
| S=c1[nH]c(-c2ccccc2)cn1-c1ccccc1 | 103% |
| c1ccc(CN(Cc2ncc[nH]2)c2ccccc2)cc1 | 97.2% |
| CN1CCCC(n2nc(Cc3ccc(Cl)cc3)c3ccccc3c2=O)CC1 (stereo not shown) | 111% |
| Cc1cncc(CN2CCC(=C3c4ccc(Cl)cc4CCc4cccnc43)CC2)c1 | 98.2% |
| COc1cc([C@@H]2c3cc4c(cc3[C@H](O)[C@H]3COC(=O)[C@H]23)OCO4)cc(OC)c1OC | 102% and 97.3% |
| C#C[C@]1(O)CC[C@H]2[C@@H]3CCC4=CC(=O)CC[C@@H]4[C@H]3CC[C@@]21C | 99.6% and 109% |
| CNC(=O)c1ccc2cc([C@@]3(O)CCn4cncc43)ccc2c1 | 86.9% |
| CC(=O)Nc1ccc(C(=O)Nc2ccccc2N)cc1 | 76.8% |
| OC[C@H]1O[C@@H](n2cnc3c(NC4CCCCC4)ncnc32)[C@H](O)[C@@H]1O | 108% |

Sample 4 — host: human patients; medium: plasma
SMILES: COc1ccc(-c2c(Nc3ccccn3)[nH]c3c(C4=CCCCC4)c(-c4ccccc4)nn3c2=O)cc1
| item | dose | time | median concentration [ng/mL] |
| --- | --- | --- | --- |
| methionine | 100 mg once daily | 0 h | 68700 |
| methionine | 100 mg once daily | 4 h | 84800 |
| methionine | 100 mg once daily | 6 h | 80700 |
| S-adenosylmethionine | 100 mg once daily | 4 h | 14.9 |
| S-adenosylmethionine | 150 mg once daily | 2 h | 18.9 |
| methionine | 200 mg once daily | 8 h | 105000 |
| S-adenosylmethionine | 200 mg once daily | 8 h | 14.9 |
| S-adenosylmethionine | 200 mg once daily | 6 h | 13.5 |
| methionine | 400 mg once daily | 6 h | 89200 |
| methionine | 150 mg once daily | 2 h | 96600 |

Some of these lines once more (sample 3):
| Structure (SMILES) | remaining activity |
| --- | --- |
| CCOC(=O)Nc1ccc2c(c1)N(C(=O)CCN1CCOCC1)c1ccccc1S2 | 96.3% |
| S=c1[nH]c(-c2ccccc2)cn1-c1ccccc1 | 103% |
| c1ccc(CN(Cc2ncc[nH]2)c2ccccc2)cc1 | 97.2% |
| CN1CCCC(n2nc(Cc3ccc(Cl)cc3)c3ccccc3c2=O)CC1 (stereo not shown) | 111% |
